Published values of several laboratories.
Lines come from different studies, so protocols differ. Numbers after ± are the reported error.

SMILES | assay | test system | conditions | how to read | endpoint | value
CC(C)n1c(C2CCNCC2)nc2c([N+](=O)[O-])c(Br)c(Br)cc21 | refers to: Dysuria | AML patients | 125 mg |  | adverse events causing interruption | 2%
CCN(CCO)CCCC(C)Nc1ccnc2cc(Cl)ccc12 (stereo not drawn) | refers to: Epistaxis grade 2 | newly diagnosed glioblastoma patients | oral, 800 mg/dose, with radiotherapy and temozolomide |  | patients with adverse event | 33%
CC(=O)c1c(C)c2cnc(Nc3ccc(C4CCN(CCS(C)(=O)=O)CC4)cn3)nc2n(C2CCCC2)c1=O |  | human, plasma | oral, 25 mg once daily, day 1, single dose |  | Tmax | 1.17 h
COC[C@@]12CC[C@H](OC)[C@]34C(C([C@H](OC)[C@H]13)[C@]1(OC(C)=O)[C@H]3[C@@H](OC(=O)c5ccccc5)[C@](O)(C[C@H]34)[C@@H](OC)[C@@H]1O)N(C)C2 |  | Sprague-Dawley rat, plasma | oral, dose not given, in PCW extract |  | MRT(0-t) | 3.62 ± 1.04 h
O=c1ccc2ncc(=O)n3c2n1C[C@H]3CN1CCC(NCc2cc3c(cn2)OCCC3)CC1 |  | healthy human participants, plasma | oral, dose not given, median, added: rifampicin |  | tlag | 0 h
COc1ccc([C@@H]2CC(=O)c3c(O)cc(O)cc3O2)cc1O |  | Sprague-Dawley rat, male, obese, urine | oral, 100 mg/kg neohesperidin, 48 h | baseline: dose | urinary recovery | 0.616 ± 0.13%
Cn1cc(-c2nc(N[C@@H]3CCCC[C@@H]3N)c(F)c3c2C(=O)NC3)cn1 | refers to: Gastrointestinal haemorrhage | patients with relapsed or refractory AML | oral, 80 mg twice daily |  | hemorrhagic adverse events | 17%
COc1ccc([C@@H](O)c2cc(-c3ncnc4cc(N5CCOCC5)ccc34)c(F)cc2Cl)nn1 |  | patients, advanced solid tumours | oral, 200 mg twice daily, treatment-emergent, added: avelumab | baseline: patients | vascular disorders incidence | 1%
CC[C@H](C)CCCCC(=O)N[C@@H](CCN)C(=O)N[C@H](C(=O)N[C@@H](CCN)C(=O)N[C@H]1CCNC(=O)[C@H]([C@@H](C)O)NC(=O)[C@H](CCN)NC(=O)[C@H](CCN)NC(=O)[C@H](CC(C)C)NC(=O)[C@@H](Cc2ccccc2)NC(=O)[C@H](CCN)NC1=O)[C@@H](C)O |  | critically ill patients, high initial AUC group, plasma | dose not given, median |  | AUC(0-24 h) at steady state | 133000 ng·h/mL
Cn1c(-c2ccc(C(N)=O)cc2F)nnc1C(C)(C)Oc1c(F)cc(Cl)cc1F |  | human | oral, 60 mg, single ascending dose, incl. administration site |  | general disorder TEAE | 33.3%
CC(C)(O)c1cc(Nc2cc(Oc3cn(C4CC4)nc3C3CCOCC3)ccn2)ccn1 | Asthenia | advanced cancer patients, grade 4 glioma expansion | oral, 50 mg twice daily, all causality any grade |  | treatment-emergent adverse events | 0%
CO[C@H]1C[C@@H]2CC[C@@H](C)[C@@](O)(O2)C(=O)C(=O)N2CCCC[C@H]2C(=O)O[C@H]([C@H](C)C[C@@H]2CC[C@@H](OC(=O)NCCOCCOCCOCCOCCOCCOCCOCCOCCC(=O)N3CCc4cc(Cn5nc(-c6ccc7oc(N)nc7c6)c6c(N)ncnc65)ccc4C3)[C@H](OC)C2)C[C@@H](O)[C@H](C)/C=C(\C)[C@@H](O)[C@@H](OC)C(=O)[C@H](C)C[C@H](C)/C=C/C=C/C=C/1C |  | patients with advanced solid tumours | intravenous, 6 mg weekly, grade 3 or higher |  | vomiting incidence | 8.3%
[O-][S+]1CCc2nc(N3CCC(c4ncc(Cl)cn4)CC3)nc(NC3(CO)CCC3)c21 (stereo not drawn) |  | idiopathic pulmonary fibrosis patients | 18 mg twice daily |  | Diarrhoea adverse events | 40%
CC(C)CC(=O)OC[C@H]1O[C@@](C#N)(c2ccc3c(N)ncnn23)[C@H](O)[C@@H]1O | plasma protein binding | dog plasma | 0.9 µM |  | bound fraction | 0.634
O=C(Nc1ccccc1)C1CCN(C(=O)Oc2cccnc2)CC1 | Bond-Lader VAS | healthy women | 20 mg | baseline: pre-dose baseline, direction not given | change in Strong-feeble score | -3.7
CCCCCCCCCCCCCCCC(=O)N[C@@H](CCC(=O)NCCCC[C@H](NC(=O)[C@H](CC(=O)O)NC(=O)[C@H](CO)NC(=O)[C@@H](NC(=O)[C@H](Cc1ccccc1)NC(=O)[C@@H](NC(=O)CNC(=O)[C@H](CCC(N)=O)NC(=O)[C@H](CO)NC(=O)[C@@H](N)Cc1c[nH]cn1)[C@@H](C)O)[C@@H](C)O)C(=O)N[C@@H](CO)C(=O)N[C@@H](CCC(=O)O)C(=O)N[C@@H](Cc1ccc(O)cc1)C(=O)N[C@@H](CC(C)C)C(=O)N[C@@H](CC(=O)O)C(=O)N[C@@H](CO)C(=O)N[C@@H](CCC(=O)O)C(=O)N[C@@H](CCCNC(=N)N)C(=O)N[C@@H](C)C(=O)N[C@@H](CCCNC(=N)N)C(=O)N[C@@H](CC(=O)O)C(=O)N[C@@H](Cc1ccccc1)C(=O)N[C@H](C(=O)N[C@@H](C)C(=O)N[C@@H](Cc1c[nH]c2ccccc12)C(=O)N[C@@H](CC(C)C)C(=O)N[C@@H](CCC(=O)O)C(=O)N[C@@H](C)C(=O)NCC(=O)NCC(=O)O)C(C)C)C(=O)O | refers to: Vomiting | humans CrCl below 20 mL/min | subcutaneous, 100 µg single dose |  | treatment-related adverse events | 33.3%
O=S(=O)(Nc1ccccc1)c1ccc(NC(=S)Nc2ccccc2)cc1 | refers to: AST | female mouse, blood | oral, 20 mg/kg daily, 14 days |  | serum enzyme activity | 531 U/L
Cn1ncc(-c2nc(N[C@H]3CC[C@H](N)CC3)ncc2Cl)c1CC1CC1 | refers to: anemia any grade | human patients phase I | dose not given |  | adverse event incidence | 37%

SMILES | assay | test system | conditions | how to read | endpoint | value
CC1(C)[C@H](C(=O)O[C@H](C#N)c2cccc(Oc3ccccc3)c2)[C@@H]1C=C(Br)Br | refers to: CYP1A2 | human, age 1 year, recombinant human CYP1A2 | 0.1 µM |  | enzyme contribution to clearance | 0.14%
CCN1[C@@H](C(=O)NC23CCC(C(=O)O)(CC2)CC3)[C@H](c2cccc(Cl)c2F)[C@]2(C(=O)Nc3cc(Cl)ccc32)C12CCCCC2 |  | patients with advanced solid tumours | oral, 200 mg |  | Dizziness incidence | 0%
C[C@]1(O)C[C@@](N)(c2ccc(-c3nc4n(c3-c3ccccc3)COc3ccncc3-4)cc2)C1 |  | human, advanced or metastatic solid tumours | 16 mg once daily, dose-ranging cohort |  | patients with grade ≥3 TEAE | 100%
CCc1ccc(CC/C=C/c2ccc3c(c2)C(=O)CC3)cc1 |  | Sprague-Dawley rat, male | oral, 450 mg/kg/day, 14 days |  | Neutrophil percentage | 14.8%
CN(C)C1(CNC(=O)c2ccc3c(c2)CCN3C(=O)c2ccccc2)CCOCC1 |  | male C57BL/6 mice | intraperitoneal, 50 mg/kg, 30 min |  | unbound brain concentration | 597 nM
CC[C@H](C)[C@@H]1NC(=O)[C@@H]2CCCN2C(=O)[C@H](CC(C)C)NC(=O)[C@H](CC(C)C)NC(=O)CNC(=O)[C@@H](NC(=O)[C@@H](NC(=O)[C@H](CC(=O)O)NC(=O)CNC(=O)[C@@H](NC(=O)[C@H](C)NC(=O)CNC(=O)[C@H](CCCCN)NC(=O)[C@H](CC(C)C)NC(=O)[C@H](CC(C)C)NC(=O)[C@H](CCCCN)NC(=O)CNC(=O)[C@@H](NC(=O)[C@@H](N)CC(C)C)C(C)C)C(C)C)C(C)C)CSSC[C@@H](C(=O)O)NC1=O |  | female C57BL/6 mice, plasma | intravenous, 10 mg/kg |  | AUC(0-inf) | 1.23 ± 0.157 ng·h/mL
CC(C)C[C@@H](NC(=O)[C@H](Cc1ccccc1)NC(=O)CNC(=O)[C@@H](C)NC(=O)[C@H](Cc1ccc(O)cc1)NC(=O)[C@@H]1CCCN1C(=O)[C@@H]1CCCN1C(=O)c1ccc[n+](C)c1)C(=O)O | HPLC-UV | rat whole brain homogenate | 37 °C |  | half-life | 9 min
COc1ccc2nc3cc(Cl)ccc3c(Nc3cc(CN4CCCC4)c(O)c(CN4CCCC4)c3)c2n1 |  | mouse, blood | intraperitoneal, 14 mg/kg |  | plateletcrit | 0.06%
O=C1Nc2cc3[nH]nc(-c4ccncc4)c3cc2CN1Cc1ccccc1 | CTCAE v4.03 | advanced solid tumour patients | intravenous, 7.2 mg/kg |  | patients with ≥1 TEAE | 100%
CC(C)[C@H](N)C(=O)NCCCS(=O)(=O)O |  | human | oral, 265 mg twice daily, 3 h post-dose, steady state, week 65 |  | plasma concentration | 1500 ng/mL
Fc1ccc([C@@H]2CCNC[C@H]2COc2ccc3c(c2)OCO3)cc1 | refers to: Anxiety | healthy volunteers | oral, dose not given, given -1 h relative to LSD, added: LSD | direction not given | List of Complaints score | 0 score
C[C@]1(CO)Cc2ncn(-c3ccc(C#N)c(Cl)c3)c2C(=O)O1 |  | Chinese subjects | dose not given, all doses total |  | drug-related Headache incidence | 8.3%
Cc1cnc(N2CC3(CCOCC3)C2)c(C(=O)Nc2ccc(C(=O)N3CCc4cc(C(=O)Nc5c(C)cccc5F)sc4-c4ccccc43)cc2)c1 |  | dog, plasma | inhaled, 0.9 mg/kg | baseline: intravenous | bioavailability | ~15%
CC(C)[C@@H]1NC(=O)CNC(=O)[C@H](CC(N)=O)NC(=O)[C@H](CCCNC(=N)N)NC(=O)[C@H](Cc2ccc(O)cc2)NC(=O)[C@H](C(C)C)NC(=O)[C@@H](NC(=O)[C@@H](NC(=O)[C@H](CC(N)=O)NC(=O)[C@H](Cc2c[nH]c3ccccc23)NC(=O)[C@H](C)NC(=O)[C@H](Cc2ccccc2)NC(=O)CN)C(C)C)CSSC[C@@H](C(=O)N[C@@H](Cc2cnc[nH]2)C(=O)N[C@@H](CCCNC(=N)N)C(=O)N[C@@H](CCCNC(=N)N)C(=O)N[C@@H](C)C(=O)N[C@@H](CC(N)=O)C(N)=O)NC(=O)[C@H](C(C)C)NC(=O)[C@H](CCCNC(=N)N)NC1=O |  | ICR mouse, blood | intramammary, 5 mg/kg, day 5, 3 d dosing |  | globulin | 19.23 ± 0.08 g/L
C[C@@H](NC(=O)N1C(=O)[C@H](Cc2ccnc(N)c2)[C@H]1C(=O)O)C1CCCCC1 |  | healthy adult Chinese volunteers | continuous intravenous infusion, 0.3 mg/kg/h, 5-day infusion, CTCAE 5.0 grading |  | drug-related decreased neutrophil | 0%
Nc1nc2cc(-c3ccc4ncc(C(=O)N5CCOCC5)n4c3)ccc2o1 |  | human, advanced solid tumours | 100–300 mg once daily, drug-related |  | serious adverse events | 8%
N#C[C@@H]1CC(F)(F)CN1C(=O)CNC(=O)c1ccnc2ccc(OCCCN3CCN(C(=O)CN4CCN(CC(=O)[O-])CCN(CC(=O)[O-])CC4)CC3)cc12.[18F-].[Al+3] |  | healthy rat, bladder | iv, 2 h |  | tissue uptake | 0.75 ± 0.25 %ID/g
COc1cc2c(Oc3ccc4[nH]c(C)cc4c3F)ccnc2cc1OCC1(N)CC1 |  | paediatric recurrent refractory sarcoma | 8 mg |  | grade 1 or 2 Appendicitis | 0%
